Assay results pooled from the literature.
Compare with care: the assays were run in different laboratories. Values joined by “and” are separate records of one study, mostly repeats; a detail may differ. Numbers after ± are the reported error.
pbpA: Penicillin-binding protein 1A (pbpA, Streptococcus pneumoniae, UniProt Q8DR59)
INSR: Insulin receptor (INSR, Homo sapiens, UniProt P06213)
Sequence of UniProt P06276 (whole entry, looked up): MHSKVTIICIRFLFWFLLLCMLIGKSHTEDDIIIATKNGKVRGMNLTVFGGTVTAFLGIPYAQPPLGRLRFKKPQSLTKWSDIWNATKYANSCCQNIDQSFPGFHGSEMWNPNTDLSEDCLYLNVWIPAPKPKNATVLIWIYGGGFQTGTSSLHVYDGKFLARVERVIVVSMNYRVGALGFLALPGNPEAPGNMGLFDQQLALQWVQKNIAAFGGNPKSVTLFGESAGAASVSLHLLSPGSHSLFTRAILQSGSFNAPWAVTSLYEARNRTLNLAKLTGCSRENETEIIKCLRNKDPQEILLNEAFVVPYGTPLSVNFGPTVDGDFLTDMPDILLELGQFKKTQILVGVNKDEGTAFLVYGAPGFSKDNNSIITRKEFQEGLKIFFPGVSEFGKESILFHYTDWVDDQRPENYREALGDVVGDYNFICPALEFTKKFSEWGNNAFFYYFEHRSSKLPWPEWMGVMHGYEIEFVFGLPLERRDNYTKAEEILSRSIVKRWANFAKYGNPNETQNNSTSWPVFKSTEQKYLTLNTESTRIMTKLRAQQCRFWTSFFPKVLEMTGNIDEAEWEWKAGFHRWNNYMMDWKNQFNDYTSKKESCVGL
Sequence of UniProt Q92743 (whole entry, looked up): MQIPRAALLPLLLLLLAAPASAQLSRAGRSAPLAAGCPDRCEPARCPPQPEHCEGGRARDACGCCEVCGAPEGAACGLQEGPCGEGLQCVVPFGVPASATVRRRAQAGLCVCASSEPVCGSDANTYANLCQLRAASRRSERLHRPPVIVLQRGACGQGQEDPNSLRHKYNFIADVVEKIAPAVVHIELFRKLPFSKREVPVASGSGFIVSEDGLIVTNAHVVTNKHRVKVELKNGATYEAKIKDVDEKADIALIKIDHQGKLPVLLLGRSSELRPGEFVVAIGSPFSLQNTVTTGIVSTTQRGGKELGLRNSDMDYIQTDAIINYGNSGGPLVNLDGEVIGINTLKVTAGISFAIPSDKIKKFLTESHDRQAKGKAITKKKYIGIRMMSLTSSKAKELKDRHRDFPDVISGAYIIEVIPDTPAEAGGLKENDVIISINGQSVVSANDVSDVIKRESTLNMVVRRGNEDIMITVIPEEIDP
Sequence of UniProt P06213 (whole entry, looked up): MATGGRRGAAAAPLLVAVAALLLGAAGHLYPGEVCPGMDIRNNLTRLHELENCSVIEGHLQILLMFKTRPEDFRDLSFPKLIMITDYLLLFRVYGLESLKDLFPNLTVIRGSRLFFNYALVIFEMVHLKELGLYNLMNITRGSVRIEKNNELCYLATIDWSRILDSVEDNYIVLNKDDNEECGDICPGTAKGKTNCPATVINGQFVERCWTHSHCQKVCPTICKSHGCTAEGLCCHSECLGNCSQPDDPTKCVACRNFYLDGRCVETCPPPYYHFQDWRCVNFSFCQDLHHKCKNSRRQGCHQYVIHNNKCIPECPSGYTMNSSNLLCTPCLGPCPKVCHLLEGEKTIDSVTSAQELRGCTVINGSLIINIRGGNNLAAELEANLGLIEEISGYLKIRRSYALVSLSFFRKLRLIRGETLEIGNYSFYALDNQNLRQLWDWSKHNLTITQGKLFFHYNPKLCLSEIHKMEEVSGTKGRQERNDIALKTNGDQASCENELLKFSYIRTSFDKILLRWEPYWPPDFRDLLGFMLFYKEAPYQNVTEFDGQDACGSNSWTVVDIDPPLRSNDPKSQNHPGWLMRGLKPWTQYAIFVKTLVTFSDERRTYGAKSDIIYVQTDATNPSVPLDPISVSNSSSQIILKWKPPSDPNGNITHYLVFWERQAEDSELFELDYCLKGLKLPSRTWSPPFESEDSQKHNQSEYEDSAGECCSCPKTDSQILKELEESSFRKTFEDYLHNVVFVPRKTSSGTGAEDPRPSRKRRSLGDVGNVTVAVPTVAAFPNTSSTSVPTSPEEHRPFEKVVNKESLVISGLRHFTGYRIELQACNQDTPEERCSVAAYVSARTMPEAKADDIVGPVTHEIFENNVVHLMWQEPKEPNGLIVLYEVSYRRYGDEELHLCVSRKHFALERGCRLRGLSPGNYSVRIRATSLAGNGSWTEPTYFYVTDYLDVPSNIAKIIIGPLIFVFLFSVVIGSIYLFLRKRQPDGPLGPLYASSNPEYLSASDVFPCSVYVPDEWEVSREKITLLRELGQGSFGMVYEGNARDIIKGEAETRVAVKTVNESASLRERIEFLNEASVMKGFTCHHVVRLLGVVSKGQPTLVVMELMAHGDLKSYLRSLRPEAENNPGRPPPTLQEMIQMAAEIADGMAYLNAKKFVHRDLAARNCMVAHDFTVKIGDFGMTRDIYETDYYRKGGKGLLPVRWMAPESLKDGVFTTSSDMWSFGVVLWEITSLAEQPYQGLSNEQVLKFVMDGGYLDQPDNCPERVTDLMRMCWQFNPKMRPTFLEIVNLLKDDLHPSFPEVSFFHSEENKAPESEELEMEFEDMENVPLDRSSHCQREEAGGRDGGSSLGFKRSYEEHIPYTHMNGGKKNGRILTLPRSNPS
Sequence of UniProt P81908 (whole entry, looked up): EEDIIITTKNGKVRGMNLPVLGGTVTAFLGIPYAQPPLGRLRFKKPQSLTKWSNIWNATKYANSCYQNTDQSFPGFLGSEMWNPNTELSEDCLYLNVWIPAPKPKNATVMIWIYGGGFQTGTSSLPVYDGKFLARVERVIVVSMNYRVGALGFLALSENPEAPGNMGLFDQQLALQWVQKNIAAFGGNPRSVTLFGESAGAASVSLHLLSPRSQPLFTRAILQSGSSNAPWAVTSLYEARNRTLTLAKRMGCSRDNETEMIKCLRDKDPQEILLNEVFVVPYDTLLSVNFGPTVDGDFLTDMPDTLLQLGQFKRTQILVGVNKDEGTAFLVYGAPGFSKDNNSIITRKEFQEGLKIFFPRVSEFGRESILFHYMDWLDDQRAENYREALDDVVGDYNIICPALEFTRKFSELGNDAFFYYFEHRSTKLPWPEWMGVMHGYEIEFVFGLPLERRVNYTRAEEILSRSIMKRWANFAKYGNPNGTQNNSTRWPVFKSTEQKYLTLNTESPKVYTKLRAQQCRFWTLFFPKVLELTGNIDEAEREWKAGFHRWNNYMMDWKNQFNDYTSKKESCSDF
Sequence of UniProt P16591 (whole entry, looked up): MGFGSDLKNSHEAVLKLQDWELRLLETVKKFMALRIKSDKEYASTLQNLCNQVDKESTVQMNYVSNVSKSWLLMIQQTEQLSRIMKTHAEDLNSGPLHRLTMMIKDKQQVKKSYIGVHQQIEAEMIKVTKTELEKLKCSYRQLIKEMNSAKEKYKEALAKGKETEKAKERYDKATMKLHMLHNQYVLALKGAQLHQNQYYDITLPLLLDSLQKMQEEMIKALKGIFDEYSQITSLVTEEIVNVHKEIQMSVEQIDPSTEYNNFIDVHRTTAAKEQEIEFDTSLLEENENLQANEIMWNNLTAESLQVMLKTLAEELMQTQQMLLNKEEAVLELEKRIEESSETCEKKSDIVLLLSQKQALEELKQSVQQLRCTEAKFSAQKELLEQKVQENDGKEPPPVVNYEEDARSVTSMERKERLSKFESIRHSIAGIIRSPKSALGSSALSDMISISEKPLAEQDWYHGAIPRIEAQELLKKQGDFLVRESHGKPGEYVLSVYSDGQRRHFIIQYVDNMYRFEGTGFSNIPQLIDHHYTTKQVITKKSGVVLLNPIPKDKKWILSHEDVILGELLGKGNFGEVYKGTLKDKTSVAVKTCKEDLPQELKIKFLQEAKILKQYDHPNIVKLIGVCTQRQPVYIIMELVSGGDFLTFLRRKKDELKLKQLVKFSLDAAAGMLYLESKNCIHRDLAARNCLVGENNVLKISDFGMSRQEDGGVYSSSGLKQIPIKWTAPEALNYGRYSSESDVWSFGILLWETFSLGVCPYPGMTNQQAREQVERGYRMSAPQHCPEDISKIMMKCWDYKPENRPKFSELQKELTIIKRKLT
Sequence of UniProt Q14973 (whole entry, looked up): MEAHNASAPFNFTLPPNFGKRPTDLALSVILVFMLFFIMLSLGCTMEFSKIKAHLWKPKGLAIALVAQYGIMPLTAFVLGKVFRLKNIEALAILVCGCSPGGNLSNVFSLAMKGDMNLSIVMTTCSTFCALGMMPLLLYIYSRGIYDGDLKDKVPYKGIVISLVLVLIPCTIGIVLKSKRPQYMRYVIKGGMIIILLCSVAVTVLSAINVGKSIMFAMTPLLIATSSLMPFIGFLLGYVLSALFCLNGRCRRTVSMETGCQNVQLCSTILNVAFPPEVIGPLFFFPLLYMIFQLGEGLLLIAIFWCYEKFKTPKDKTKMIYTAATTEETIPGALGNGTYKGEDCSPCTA
Sequence of UniProt P47871 (whole entry, looked up): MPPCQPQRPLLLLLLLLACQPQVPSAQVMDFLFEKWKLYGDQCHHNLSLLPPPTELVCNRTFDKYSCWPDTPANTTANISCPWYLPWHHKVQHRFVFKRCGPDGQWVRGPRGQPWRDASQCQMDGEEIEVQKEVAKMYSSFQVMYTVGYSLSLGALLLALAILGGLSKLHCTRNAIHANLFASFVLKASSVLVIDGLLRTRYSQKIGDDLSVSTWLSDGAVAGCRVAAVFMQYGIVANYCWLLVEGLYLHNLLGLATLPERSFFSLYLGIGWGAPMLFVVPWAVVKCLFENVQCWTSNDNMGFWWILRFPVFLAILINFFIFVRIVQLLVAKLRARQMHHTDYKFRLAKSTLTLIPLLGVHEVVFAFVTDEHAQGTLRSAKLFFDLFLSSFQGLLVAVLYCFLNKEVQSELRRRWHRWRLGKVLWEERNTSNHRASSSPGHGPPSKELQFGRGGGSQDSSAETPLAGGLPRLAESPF
Sequence of UniProt P38489 (whole entry, looked up): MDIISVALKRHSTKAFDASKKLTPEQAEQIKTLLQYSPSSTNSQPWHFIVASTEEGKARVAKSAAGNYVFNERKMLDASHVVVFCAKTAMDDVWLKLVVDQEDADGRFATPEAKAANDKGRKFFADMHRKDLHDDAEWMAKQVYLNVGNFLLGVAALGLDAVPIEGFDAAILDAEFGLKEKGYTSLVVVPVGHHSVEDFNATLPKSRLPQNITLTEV

Structure (SMILES)	target	assay	test system	conditions	how to read	measurement	value
Clc1ccc(-c2ccccc2Cl)cc1	Androgen receptor (AR, Homo sapiens, UniProt P10275)	reporter gene, antagonist		24 h, added: DHT 2 nM		IC25	0.04 µM
O=C(c1ccc(Cl)cc1)N1CCN2C(=O)N(OC(=O)N3CCOc4ccccc43)C(=O)C2C1 (stereo not drawn)	Serine protease HTRA1 (Homo sapiens, UniProt Q92743)	MS-based ABPP	SW-620 conditioned medium	10 µM, 1 h, 37 °C	reference: compound over DMSO, lower = more inhibition	peptide ratio	1.03 and 1.15 and 1.38 and 1.18 and 1.49 and 1.14 and 1.13 and 1.02
CO/N=C(\C(=O)N[C@@H]1C(=O)N2C(C(=O)O)=C(CSc3nc(=O)c(=O)[nH]n3C)CS[C@H]12)c1csc(N)n1	pbpA	inhibitor				kinact/KI	1700 ± 170 M⁻¹ s⁻¹
CN1CCN(c2cc(-c3ccncc3)c(-c3ccc4ccccc4c3)nn2)CC1	Proteinase-activated receptor 2, trypsin-activated (F2RL1, Homo sapiens, UniProt P55085)	agonist, FLIPR		12.5 µM		activation	-3.2%
COc1c(N2CC3CCCNC3C2)c(F)cc2c(=O)c(C(=O)OCc3cnc([N+](=O)[O-])s3)cn(C3CC3)c12.O=C(O)C(F)(F)F (stereo not drawn)	nfsB (Escherichia coli K-12, UniProt P38489)	substrate		added: NADH 100 µM		kcat	494 min⁻¹
CN(C(=O)n1cnc(-c2ccc[n+]([O-])c2)c1)C1CCCCC1	Patatin-like phospholipase domain-containing 6 (Rattus norvegicus, UniProt M0R715)	enzyme activity, ABPP	rat, brain	oral, 100 mg/kg/day, 28 days	reference: vehicle	fold change	-2.7
CC1=C(C(=O)O)N2C(=O)[C@@H](NC(=O)[C@H](N)c3ccccc3)[C@H]2SC1	pbpA	inhibitor				kinact/KI	220 ± 120 M⁻¹ s⁻¹
CC[C@H](C)[C@H]1O[C@]2(C=C[C@@H]1C)C[C@@H]1C[C@@H](C/C=C(\C)[C@@H](O[C@H]3C[C@H](OC)[C@@H](O[C@H]4C[C@H](OC)[C@@H](O)[C@H](C)O4)[C@H](C)O3)[C@@H](C)/C=C/C=C3\CO[C@@H]4[C@H](O)C(C)=C[C@@H](C(=O)O1)[C@]34O)O2	GABA-A receptor; alpha-1/beta-2/gamma-2 (Rattus norvegicus, UniProt P18508+P62813+P63138)	membrane potential, agonist, QP-DHM primary screen	HEK293 expressing GABAA	10 µM	direction not given	normalized score	0.722
Cc1[nH]c(C)c(S(=O)(=O)Nc2ccc(S(F)(F)(F)(F)F)cc2)c1C(=O)N1CCC(F)(F)C1	DRD3 (Homo sapiens, UniProt P35462)	saturation binding		100 µM, added: [3H]dopamine		Bmax	1690 ± 300 fmol/mg
CCN(CC)CCCC[C@H](NC(=O)[C@H](CC(C)C)NC(=O)[C@H](C)NC(=O)[C@H](Cc1ccccc1)NC(=O)c1ccc(C(C)(C)C)cc1)C(=O)N[C@@H](CO)C(=O)OC	NPY2R (Homo sapiens, UniProt P49146)	radioligand binding		10 µM		specific binding	90.1%
CCCCOP(=O)(O)C(C)=O	dxs (Pseudomonas aeruginosa, UniProt Q9KGU7, R106A)			concentration not given, variant enzyme	reference: wild type	Ki fold change	11 fold and ~11 fold
C[C@H]1COCCN1c1nc(NCc2cccnc2C(F)(F)F)c2cccnc2n1	INSR	binding		CEREP panel		IC50	> 100 µM
O=C(Nc1cccnn1)N1CCC(=Cc2cccc(Oc3ccc(C(F)(F)F)cn3)c2)CC1	STK17A (Homo sapiens, UniProt Q9UEE5)	kinase activity, inhibitor		50 µM, human		inhibition	12%
CCCCn1c(-c2ccccc2)nc(-c2ccccc2)c1CN(Cc1ccc2c(c1)OCO2)Cc1ccc2c(c1)OCO2	Cholinesterase (BCHE, Homo sapiens, UniProt P06276)			concentration not given, Triton		efficacy	-92.6 ± 1.54%
CCCCCCCCCCC1=C(N(C)C)C(=O)c2ccccc2C1=O	Reaction center protein M chain, QA site (pufM, Cereibacter sphaeroides, UniProt P0C0Y9)	charge recombination	Rhodobacter sphaeroides, LDAO detergent solution	pH 7.8, 298 K, quinone reconstituted in QA site		P+QA− recombination rate	550 s⁻¹
C[C@@H]1NC(=O)N[C@@H]1CCCCCC(=O)N1CCN(C(=O)c2ccc(/C=C/c3n[nH]c4ccc(-c5ccc(S(=O)(=O)F)cc5)cc34)cc2)CC1	ABL1 (Homo sapiens, UniProt P00519)	covalent inhibitor	recombinant protein			kinact/KI	23 M⁻¹ s⁻¹
CN(CC(=O)O)C(=N)NP(=O)(O)O	CKMT1A (Homo sapiens, UniProt P12532, E265D)	substrate, Kinase-Glo luminescence		pH 7.0, reverse reaction, E227D mutant, added: second substrate in excess		kcat	0.36 ± 0.012 min⁻¹
CN(C)C(=O)COC(=O)Cc1ccc(OC(=O)c2ccc(NC(=N)N)cc2)cc1	TMPRSS2 (Homo sapiens, UniProt O15393)	enzyme activity, inhibitor				Hill slope	-1.27
CCN(CC)CCNc1ccc(CO)c2sc3ccccc3c(=O)c12	Cholinesterase (BCHE, Homo sapiens, UniProt P06276)			concentration not given, Triton		efficacy	-104 ± 9.73%
CCN(C)C(=O)Oc1ccc(/C=C/C(=O)NC2CCN(Cc3ccccc3)CC2)cc1OC	Cholinesterase (BCHE, Equus caballus, UniProt P81908)	Ellman	equine serum BuChE		reference: AChE IC50 over BuChE IC50	selectivity ratio	1.3

Structure (SMILES)	target	assay	test system	conditions	how to read	measurement	value
C[C@H]1CN(c2n[nH]c3nc(N[C@H]4CC[C@H](NS(=O)(=O)CCC(F)(F)F)CC4)ncc23)CCO1	Delta(3,5)-Delta(2,4)-dienoyl-CoA isomerase, mitochondrial (Homo sapiens, UniProt Q13011)	Kinobeads competition, item: ECH1		0.032 µM, unit not given	reference: vehicle	remaining binding	1.06
CN(CCN1CCC(OC(=O)Nc2ccccc2-c2ccccc2)CC1)C(=O)c1ccc(CN2CCC(C(N)=O)CC2)cc1	Na+/K+ ATPase	enzyme activity		1 µM		inhibition	1%
CC(=O)N[C@@H](CS)C(=O)N[C@@H](CCCNC(=N)N)C(=O)N[C@@H](CCCCN)C(=O)N[C@@H](CCCNC(=N)N)C(=O)N[C@@H](CC(N)=O)C(=O)N[C@@H](CCCNC(=N)N)C(=O)N[C@@H](CO)C(=O)N1CCC[C@H]1C(=O)N[C@@H](CCC(=O)O)C(=O)N[C@@H](CCCNC(=N)N)C(N)=O	WDR5 (Homo sapiens, UniProt P61964)	binding, competitor of LANA peptide, ITC		pH 7.0, 20 °C, WIN motif peptide		ΔG	-6.8 kcal/mol
O=C(Nc1cnccc1Cl)N1CCN(Cc2ccc3c(c2)OC(F)(F)O3)CC1	Adra1b (Rattus norvegicus, UniProt P15823)	binding		10 µM, added: [3H]prazosin		inhibition	3%
CCOC(=O)COc1ccc2c(=O)c3ccccc3oc2c1	ache (Electrophorus electricus, UniProt O42275)	enzyme activity		1.68 µM, added: substrate 3.45 mM	higher = faster reaction	reaction velocity	0.0029 a.u.
CCCCCCCC[C@H](NC(C)=O)C(=O)N[C@@H](CO)C(=O)N[C@@H](CC(C)C)C(=O)N[C@@H](CO)C(=O)N(C)[C@@H](CC(C)C)C(=O)N[C@@H](CC(=O)O)C(=O)N[C@@H](CCCCCCCC)C(=O)N[C@@H](CC(=O)O)C(N)=O	Glucagon receptor (GCGR, Homo sapiens, UniProt P47871)	CPM thermal shift		DDM/CHS detergent		melting temperature	55.4 ± 1.6 °C
Nc1nc2c(ncn2[C@H]2C[C@H](O)[C@@H](COP(=O)(O)OP(=O)(O)OP(=O)(O)O)O2)c(=O)[nH]1	Gag-Pol polyprotein, reverse transcriptase (gag-pol, Human immunodeficiency virus type 1 group M subtype B, UniProt P04585, K653N)	nucleotide misincorporation, steady-state kinetics		K66N RT, added: matched template/primer, template T		kcat	1.52 ± 0.08 min⁻¹
CC[C@@H](C)[C@@H](NC(=O)[C@@H](Cc1ccc(O)cc1)NC(=O)[C@H]1CCCN1C(=O)[C@@H](CCCNC(=N)N)NC(=O)[C@H](N)Cc1c[nH]cn1)C(=O)N[C@H](C)C(=O)N[C@H](Cc1c[nH]cn1)C(=O)N[C@H](CCCNC(=N)N)C(=O)N[C@H](CCCCNC(=O)c1cccc(S(=O)(=O)F)c1)C(=O)N[C@H](Cc1ccc(O)cc1)C(=O)N[C@H](CO)C(=O)N[C@H](Cc1ccccc1)C(N)=O	Transferrin receptor protein 1 (Tfrc, Mus musculus, UniProt Q62351)	flow cytometry	DC2.4	48 h, pH 7.4, unit not given	reference: 0 h	surface TFRC expression	0.489
C[C@H](CCC(=O)N[C@@H](CCC(=O)OC[C@H]1O[C@@H](n2cc(F)c(=O)[nH]c2=O)C[C@@H]1O)C(=O)O)[C@H]1CC[C@H]2[C@@H]3[C@H](O)C[C@@H]4C[C@H](O)CC[C@]4(C)[C@H]3CC[C@]12C	SLC10A1 (Homo sapiens, UniProt Q14973)	uptake, substrate	HEK293 expressing NTCP		reference: taurocholate	normalised Vmax	0.0185
[2H]c1c([2H])c([C@]2([2H])CCCN2C(=O)C(C)(C)Oc2ccc3cn[nH]c3c2)c([2H])c([2H])c1C([2H])([2H])[2H]	SNRK (Homo sapiens, UniProt Q9NRH2)	KINOMEscan		1 µM	reference: DMSO control	remaining binding	100%
COc1cc(N)c(Cl)cc1C(=O)NC1CN2CCC1CC2 (stereo not drawn)	Trace amine-associated receptor 6 (TAAR6, Homo sapiens, UniProt Q96RI8)	β-arrestin recruitment, TANGO luminescence, item: TAAR6		concentration not given	reference: basal luminescence	log2 fold change	-0.161
CN(C)C(=O)Oc1ccc(/C=C/C(=O)NC2CCN(Cc3ccccc3)CC2)cc1	Cholinesterase (BCHE, Equus caballus, UniProt P81908)	Ellman	equine serum BuChE		reference: AChE IC50 over BuChE IC50	selectivity ratio	0.5
Nc1ncnc2c1ncn2[C@@H]1O[C@H](COP(=O)(O)OP(=O)(O)NP(=O)(O)O)[C@@H](O)[C@H]1O	Cell cycle histidine kinase CckA, cytoplasmic region (Caulobacter vibrioides, UniProt Q9X688)	ITC		12 °C, added: c-di-GMP 100 µM		-TΔS	-3 kcal/mol
CN(C(=O)n1cnc(-c2ccc[n+]([O-])c2)c1)C1CCCCC1	glycine transporter, rat	binding		50 µM, added: [3H]glycine		inhibition	-1%
COc1ccc(N2C(=O)N(c3c(C)cccc3Cl)Cc3cnc(Nc4ccc(C5CCN(C)CC5)cc4OC)nc32)nc1	FER (Homo sapiens, UniProt P16591)	kinase activity		0.5 µM		inhibition	76%
CC(C)(C)NCC(O)COc1ccccc1OCC1CCCO1 (stereo not drawn)	Cholinesterase (BCHE, Homo sapiens, UniProt P06276)			concentration not given, Triton		efficacy	-71.3 ± 26.6%
CC(C)[C@@H](O)CC[C@@H](C)[C@H]1CC[C@H]2[C@@H]3CC=C4C[C@@H](O)CC[C@]4(C)[C@H]3CC[C@]12C	Glutamate NMDA receptor; GRIN1/GRIN2B (GRIN1/GRIN2B, Homo sapiens, UniProt Q05586+Q13224, F563A)	positive allosteric modulator, two-electrode voltage clamp	Xenopus oocytes expressing GluN2B-F563A	10 µM, 0.02% cremophor, added: 100 µM glutamate and glycine	reference: without compound	current response	318 ± 17%
S=C(SSC(=S)N1CCCCC1)N1CCCCC1	Cholinesterase (BCHE, Homo sapiens, UniProt P06276)			concentration not given, Triton		efficacy	-65.7 ± 18.6%
COc1cc(Nc2ncc(F)c(Nc3ccc4c(n3)NC(=O)C(C)(C)O4)n2)cc(OC)c1OC	INSR	KINOMEscan		10 µM		inhibition	65%

For quick reference, copied from above:
Structure (SMILES)	target	assay	test system	conditions	how to read	measurement	value
O=C(Nc1cccnn1)N1CCC(=Cc2cccc(Oc3ccc(C(F)(F)F)cn3)c2)CC1	STK17A (Homo sapiens, UniProt Q9UEE5)	kinase activity, inhibitor		50 µM, human		inhibition	12%
CN(C(=O)n1cnc(-c2ccc[n+]([O-])c2)c1)C1CCCCC1	Patatin-like phospholipase domain-containing 6 (Rattus norvegicus, UniProt M0R715)	enzyme activity, ABPP	rat, brain	oral, 100 mg/kg/day, 28 days	reference: vehicle	fold change	-2.7
CCCCCCCCCCC1=C(N(C)C)C(=O)c2ccccc2C1=O	Reaction center protein M chain, QA site (pufM, Cereibacter sphaeroides, UniProt P0C0Y9)	charge recombination	Rhodobacter sphaeroides, LDAO detergent solution	pH 7.8, 298 K, quinone reconstituted in QA site		P+QA− recombination rate	550 s⁻¹
CCN(CC)CCNc1ccc(CO)c2sc3ccccc3c(=O)c12	Cholinesterase (BCHE, Homo sapiens, UniProt P06276)			concentration not given, Triton		efficacy	-104 ± 9.73%
Clc1ccc(-c2ccccc2Cl)cc1	Androgen receptor (AR, Homo sapiens, UniProt P10275)	reporter gene, antagonist		24 h, added: DHT 2 nM		IC25	0.04 µM
